Measured values from different studies.
Each line is one published result; not all experiments were run side by side. Numbers after ± are the reported error.
MAPT neurofibrillary tangles: Microtubule-associated protein tau, neurofibrillary tangles (MAPT, Homo sapiens, UniProt P10636)
Sequence of UniProt P10636 (whole entry, looked up): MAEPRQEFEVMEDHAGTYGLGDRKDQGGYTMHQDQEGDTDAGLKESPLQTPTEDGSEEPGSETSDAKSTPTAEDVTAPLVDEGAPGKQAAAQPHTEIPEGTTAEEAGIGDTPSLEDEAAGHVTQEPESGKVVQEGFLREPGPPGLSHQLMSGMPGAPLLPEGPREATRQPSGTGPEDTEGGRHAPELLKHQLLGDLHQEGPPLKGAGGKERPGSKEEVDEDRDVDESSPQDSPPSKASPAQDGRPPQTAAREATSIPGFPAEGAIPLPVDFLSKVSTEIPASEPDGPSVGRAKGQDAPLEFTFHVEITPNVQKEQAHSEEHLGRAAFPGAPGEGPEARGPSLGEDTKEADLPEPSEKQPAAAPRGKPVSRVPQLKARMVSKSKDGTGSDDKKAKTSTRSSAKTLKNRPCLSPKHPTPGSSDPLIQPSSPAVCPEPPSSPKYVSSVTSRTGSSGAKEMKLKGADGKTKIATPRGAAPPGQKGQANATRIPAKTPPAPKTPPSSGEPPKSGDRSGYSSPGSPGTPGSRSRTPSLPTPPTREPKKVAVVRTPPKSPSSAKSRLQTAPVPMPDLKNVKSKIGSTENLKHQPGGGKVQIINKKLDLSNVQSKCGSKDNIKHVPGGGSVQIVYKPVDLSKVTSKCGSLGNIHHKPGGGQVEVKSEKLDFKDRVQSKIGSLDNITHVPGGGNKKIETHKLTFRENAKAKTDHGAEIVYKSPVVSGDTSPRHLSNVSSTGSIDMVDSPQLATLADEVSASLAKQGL
IDE: Insulin-degrading enzyme (IDE, Homo sapiens, UniProt P14735)
Sequence of UniProt P14735 (whole entry, looked up): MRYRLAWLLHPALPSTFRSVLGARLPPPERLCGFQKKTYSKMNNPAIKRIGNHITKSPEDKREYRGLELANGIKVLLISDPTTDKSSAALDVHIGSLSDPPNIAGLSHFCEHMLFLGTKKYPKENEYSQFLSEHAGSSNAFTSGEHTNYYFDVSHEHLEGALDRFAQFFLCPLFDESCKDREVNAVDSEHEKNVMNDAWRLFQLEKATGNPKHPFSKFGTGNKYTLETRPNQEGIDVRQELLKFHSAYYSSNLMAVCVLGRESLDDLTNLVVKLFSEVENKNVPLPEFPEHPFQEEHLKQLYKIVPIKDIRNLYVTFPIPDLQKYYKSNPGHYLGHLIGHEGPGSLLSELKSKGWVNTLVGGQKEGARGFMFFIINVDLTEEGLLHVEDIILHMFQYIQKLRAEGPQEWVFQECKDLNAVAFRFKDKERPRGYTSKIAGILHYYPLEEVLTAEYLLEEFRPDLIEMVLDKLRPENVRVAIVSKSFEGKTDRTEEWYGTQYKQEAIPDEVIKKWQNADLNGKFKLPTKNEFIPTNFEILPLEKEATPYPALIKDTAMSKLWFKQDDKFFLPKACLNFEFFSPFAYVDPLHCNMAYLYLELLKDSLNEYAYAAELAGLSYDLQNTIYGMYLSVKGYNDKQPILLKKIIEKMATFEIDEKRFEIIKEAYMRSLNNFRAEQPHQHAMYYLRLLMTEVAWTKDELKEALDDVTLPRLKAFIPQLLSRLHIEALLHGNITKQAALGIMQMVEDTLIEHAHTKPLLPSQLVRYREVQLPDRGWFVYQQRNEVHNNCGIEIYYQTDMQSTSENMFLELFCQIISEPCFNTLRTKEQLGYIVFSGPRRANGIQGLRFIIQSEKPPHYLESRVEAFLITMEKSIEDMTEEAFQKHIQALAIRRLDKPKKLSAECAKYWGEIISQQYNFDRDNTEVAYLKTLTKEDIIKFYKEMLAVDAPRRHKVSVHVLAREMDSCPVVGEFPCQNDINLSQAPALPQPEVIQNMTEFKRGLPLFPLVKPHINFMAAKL
SLC10A1: Hepatic sodium/bile acid cotransporter (SLC10A1, Homo sapiens, UniProt Q14973)
Sequence of UniProt Q14973 (whole entry, looked up): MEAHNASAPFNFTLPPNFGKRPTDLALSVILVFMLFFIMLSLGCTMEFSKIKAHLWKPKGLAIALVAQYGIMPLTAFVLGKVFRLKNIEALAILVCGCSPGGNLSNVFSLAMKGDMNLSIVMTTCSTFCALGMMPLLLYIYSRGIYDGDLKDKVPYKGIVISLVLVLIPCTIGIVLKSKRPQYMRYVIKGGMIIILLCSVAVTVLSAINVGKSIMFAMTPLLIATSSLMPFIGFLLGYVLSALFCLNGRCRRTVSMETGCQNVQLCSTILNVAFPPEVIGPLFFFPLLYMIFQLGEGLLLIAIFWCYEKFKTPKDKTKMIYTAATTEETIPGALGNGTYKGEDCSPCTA
Sequence of UniProt P11609 (whole entry, looked up): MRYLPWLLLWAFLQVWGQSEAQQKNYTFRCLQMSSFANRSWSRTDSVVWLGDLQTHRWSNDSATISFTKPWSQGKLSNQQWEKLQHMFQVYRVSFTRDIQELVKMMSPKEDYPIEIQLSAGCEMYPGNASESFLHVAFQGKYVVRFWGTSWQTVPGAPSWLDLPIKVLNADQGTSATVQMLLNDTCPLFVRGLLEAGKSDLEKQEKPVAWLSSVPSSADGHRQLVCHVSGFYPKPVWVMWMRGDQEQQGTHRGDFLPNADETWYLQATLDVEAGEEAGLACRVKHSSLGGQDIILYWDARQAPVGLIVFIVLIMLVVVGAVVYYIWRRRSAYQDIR
Sequence of UniProt Q99808 (whole entry, looked up): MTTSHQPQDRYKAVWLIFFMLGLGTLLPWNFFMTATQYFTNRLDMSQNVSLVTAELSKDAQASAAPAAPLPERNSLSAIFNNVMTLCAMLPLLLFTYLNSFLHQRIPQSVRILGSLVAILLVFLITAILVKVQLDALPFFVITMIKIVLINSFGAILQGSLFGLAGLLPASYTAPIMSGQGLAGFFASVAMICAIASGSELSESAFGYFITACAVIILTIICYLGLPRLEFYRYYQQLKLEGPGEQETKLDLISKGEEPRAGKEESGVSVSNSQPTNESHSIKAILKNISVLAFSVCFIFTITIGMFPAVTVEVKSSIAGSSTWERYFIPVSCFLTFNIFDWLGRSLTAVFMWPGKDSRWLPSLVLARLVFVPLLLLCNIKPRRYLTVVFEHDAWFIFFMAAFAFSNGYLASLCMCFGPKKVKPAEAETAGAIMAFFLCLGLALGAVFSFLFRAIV
Sequence of UniProt Q9QYJ6 (whole entry, looked up): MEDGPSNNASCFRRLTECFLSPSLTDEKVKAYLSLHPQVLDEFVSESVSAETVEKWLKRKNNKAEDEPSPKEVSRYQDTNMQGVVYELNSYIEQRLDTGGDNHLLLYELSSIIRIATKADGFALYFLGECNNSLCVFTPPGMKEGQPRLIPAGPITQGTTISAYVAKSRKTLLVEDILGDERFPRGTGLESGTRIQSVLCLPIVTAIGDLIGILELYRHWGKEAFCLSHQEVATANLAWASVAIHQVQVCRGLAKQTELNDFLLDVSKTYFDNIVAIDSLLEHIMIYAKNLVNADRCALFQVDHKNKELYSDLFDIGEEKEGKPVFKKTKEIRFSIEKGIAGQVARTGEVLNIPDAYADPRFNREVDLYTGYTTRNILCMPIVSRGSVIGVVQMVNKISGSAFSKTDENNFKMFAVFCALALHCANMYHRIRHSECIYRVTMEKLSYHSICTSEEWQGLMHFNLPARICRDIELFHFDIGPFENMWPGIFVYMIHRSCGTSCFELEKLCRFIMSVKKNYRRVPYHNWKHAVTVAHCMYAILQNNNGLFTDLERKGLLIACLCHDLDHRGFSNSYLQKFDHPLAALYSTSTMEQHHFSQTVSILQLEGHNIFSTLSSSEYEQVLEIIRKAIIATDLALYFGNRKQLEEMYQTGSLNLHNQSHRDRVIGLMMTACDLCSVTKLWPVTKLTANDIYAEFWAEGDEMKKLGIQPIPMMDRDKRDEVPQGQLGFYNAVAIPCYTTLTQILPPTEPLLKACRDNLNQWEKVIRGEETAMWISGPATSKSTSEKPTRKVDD
Sequence of UniProt Q8IM16 (whole entry, looked up): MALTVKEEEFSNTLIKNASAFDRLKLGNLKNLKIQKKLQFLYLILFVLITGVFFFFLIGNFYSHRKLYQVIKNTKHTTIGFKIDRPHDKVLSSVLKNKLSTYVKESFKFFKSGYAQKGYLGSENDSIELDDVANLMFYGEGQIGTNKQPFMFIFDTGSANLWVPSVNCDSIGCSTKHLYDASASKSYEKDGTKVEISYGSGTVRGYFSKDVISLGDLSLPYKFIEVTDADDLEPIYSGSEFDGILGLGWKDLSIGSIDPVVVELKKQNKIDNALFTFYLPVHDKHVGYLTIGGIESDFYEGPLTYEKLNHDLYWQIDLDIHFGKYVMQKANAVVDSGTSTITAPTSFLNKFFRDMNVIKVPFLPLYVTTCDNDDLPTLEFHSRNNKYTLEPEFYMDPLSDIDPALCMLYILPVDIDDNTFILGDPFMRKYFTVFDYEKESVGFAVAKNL
Sequence of UniProt P97287 (whole entry, looked up): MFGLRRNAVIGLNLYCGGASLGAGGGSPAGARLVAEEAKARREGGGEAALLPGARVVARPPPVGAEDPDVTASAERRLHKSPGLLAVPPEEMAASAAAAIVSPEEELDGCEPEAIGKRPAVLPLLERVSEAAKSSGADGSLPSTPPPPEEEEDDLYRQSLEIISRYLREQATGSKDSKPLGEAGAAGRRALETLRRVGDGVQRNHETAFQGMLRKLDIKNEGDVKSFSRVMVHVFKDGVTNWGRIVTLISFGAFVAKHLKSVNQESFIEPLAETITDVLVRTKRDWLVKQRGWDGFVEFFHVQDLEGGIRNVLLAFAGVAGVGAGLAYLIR

CCC(=O)c1ccc2c(c1)sc(=O)n2CCN(C)C12CC3CC(CC(C3)C1)C2 gave a Ki of 0.113 ± 0.016 µM (Sigma-2 receptor (Cavia porcellus, UniProt H0V073); radioligand binding; guinea pig brain; together with: [3H]DTG with (+)-pentazocine).
Nc1ccc(-c2ccc3cc(OCCOCCF)ccc3n2)cc1 gave a Ki of 0.028 ± 0.008 µM (MAPT neurofibrillary tangles; binding, radioligand competition; AD brain homogenate; 2 h, 37 °C, together with: [3H]THK-523).
Cn1cc(S(=O)(=O)Nc2cccn(O)c2=S)cn1 gave a Ki of 15 µM (IDE; substrate degradation, fluorescence polarisation; mean of physiological substrates).
The Ki of CCCCCCCCCCCCCC[C@@H](O)[C@@H](O)[C@H](CO[C@H]1O[C@H](CO)[C@H](O)[C@H](O)[C@H]1O)NC(=O)CCCCCCCc1ccc(C(F)(F)F)cc1 is reported as 1.2 ± 0.6 µM (Cd1d1 (Mus musculus, UniProt P11609); competitive binding on microarray; together with: surface-printed ligand).
With CNc1ccc(-c2nc3ccc(O)cc3s2)cc1 the Ki was over 1 µM (MAPT neurofibrillary tangles; binding, radioligand competition; AD brain homogenate; 2 h, 37 °C, together with: [3H]THK-523).
With O=C(Nc1cccn(O)c1=S)c1ccccc1 the Ki was 57 µM (IDE; substrate degradation, inhibitor; mean of insulin, Aβ, substrate V).
For COc1ccccc1N1CCN(CC(C(=O)NC(C)(C)C)c2ccccc2)CC1 (centres unmarked), the Ki was over 1 µM (cAMP and cAMP-inhibited cGMP 3',5'-cyclic phosphodiesterase 10A (Pde10a, Rattus norvegicus, UniProt Q9QYJ6); ligand displacement, radioligand; cell membranes).
For O=S(=O)(Nc1cccn(O)c1=S)c1ccc(Cl)s1, the Ki was 11 µM (IDE; substrate degradation, inhibitor; mean of insulin, Aβ, substrate V).
Cc1cc(N(C)CCN(C)C)cc(C)c1OCC(=O)N[C@@H](Cc1ccccc1)[C@H](O)C(=O)N1CSC(C)(C)[C@H]1C(=O)N[C@H]1c2ccccc2C[C@H]1O gave a Ki of 0.026 µM (Plasmepsin IV (PMIV, Plasmodium falciparum 3D7, UniProt Q8IM16); enzyme activity, inhibitor, fluorescence; pH 5).
For Nc1nc2c(ncn2[C@@H]2O[C@H](CO)[C@@H](O)[C@H]2O)c(=O)[nH]1, the Ki was 29 µM (Equilibrative nucleoside transporter 1 (SLC29A1, Homo sapiens, UniProt Q99808); transporter uptake, inhibitor, radiometric).
The Ki of O=S(=O)(Nc1cccn(O)c1=S)c1ccc(-c2ccccc2)s1 is reported as 23 µM (IDE; substrate degradation, inhibitor; mean of insulin, Aβ, substrate V).
C[C@H](CCC(=O)NCCS(=O)(=O)O)C1CC[C@H]2[C@@H]3C[C@H](O)[C@@H]4C[C@H](O)CC[C@]4(C)[C@H]3CC[C@]12C (some centres unmarked) has a Ki of 7.07 µM (SLC10A1; transporter uptake, inhibitor, radiometric).
The Ki of O=C(O)C[C@H](O)C(=O)O is reported as 6000 ± 1000 µM (phosphoenolpyruvate carboxylase (Phalaenopsis); inhibitor; desalted leaf extract; pH 7.5, 25 °C, leaf sampled at dusk, together with: 2.5 mM phosphoenolpyruvate).
O=S(=O)(Nc1cccn(O)c1=S)c1cccs1 gave a Ki of 7 µM (IDE; substrate degradation, fluorescence polarisation; mean of physiological substrates).
The Ki of C[C@H](CCC(=O)NCCS(=O)(=O)O)[C@H]1CC[C@H]2[C@@H]3[C@H](O)C[C@@H]4C[C@H](O)CC[C@]4(C)[C@H]3CC[C@]12C is reported as 8.13 µM (SLC10A1; transporter uptake, inhibitor, radiometric).
The Ki of Nc1ccn([C@@H]2O[C@H](CO)[C@@H](O)[C@H]2O)c(=O)n1 is reported as about 15 µM (Trichomonas vaginalis higher-affinity nucleoside transporter; inhibitor; trophozoites, Trichomonas vaginalis; higher-affinity phase, rough estimate, together with: [3H]-thymidine 125 nM).
CC[C@H](C)[C@@H]1NC(=O)[C@H](CCCNC(=N)N)NC(=O)[C@H](CCCNC(=N)N)NC(=O)[C@H](CC(C)C)NC(=O)[C@H](NC(=O)[C@H](C)N(C)C(=O)[C@H](C)N(C)C(=O)OC)CSCc2ccc(cc2)-c2ccc(cc2)CSC[C@@H](C(=O)N[C@H](C(=O)N[C@@H](CC(N)=O)C(=O)N[C@@H](CC(C)C)C(=O)N[C@@H](CCCNC(=N)N)C(=O)N[C@@H](CCC(N)=O)C(=O)N[C@@H](CCCCN)C(=O)N[C@@H](CC(C)C)C(=O)N[C@@H](CC(C)C)C(=O)N[C@@H](CC(N)=O)C(N)=O)C(C)C)NC(=O)[C@H](CC(=O)O)NC(=O)CNC1=O gave a Ki of 0.022 µM (Induced myeloid leukemia cell differentiation protein Mcl-1 homolog (Mus musculus, UniProt P97287); ligand displacement, FP).

Some of these lines once more:
CC[C@H](C)[C@@H]1NC(=O)[C@H](CCCNC(=N)N)NC(=O)[C@H](CCCNC(=N)N)NC(=O)[C@H](CC(C)C)NC(=O)[C@H](NC(=O)[C@H](C)N(C)C(=O)[C@H](C)N(C)C(=O)OC)CSCc2ccc(cc2)-c2ccc(cc2)CSC[C@@H](C(=O)N[C@H](C(=O)N[C@@H](CC(N)=O)C(=O)N[C@@H](CC(C)C)C(=O)N[C@@H](CCCNC(=N)N)C(=O)N[C@@H](CCC(N)=O)C(=O)N[C@@H](CCCCN)C(=O)N[C@@H](CC(C)C)C(=O)N[C@@H](CC(C)C)C(=O)N[C@@H](CC(N)=O)C(N)=O)C(C)C)NC(=O)[C@H](CC(=O)O)NC(=O)CNC1=O gave a Ki of 0.022 µM (Induced myeloid leukemia cell differentiation protein Mcl-1 homolog (Mus musculus, UniProt P97287); ligand displacement, FP).
Nc1ccc(-c2ccc3cc(OCCOCCF)ccc3n2)cc1 gave a Ki of 0.028 ± 0.008 µM (MAPT neurofibrillary tangles; binding, radioligand competition; AD brain homogenate; 2 h, 37 °C, together with: [3H]THK-523).
